Experimental data collected from several papers.
Numbered parts are unrelated; each lists some results of a single study. Substitutions count along the parent as printed.

Study 1 — technique: RNAcompete; molecule type: RNA; matrix: in vitro; concentration: 20 nM; notes: 7-mer, probes averaged, single round; relative to: mean of 7-mers; reading: higher = stronger binding
Target: PABPC1L2, full length, GST fusion (mouse, UniProt A0ABA7IW68)
Construct (chain): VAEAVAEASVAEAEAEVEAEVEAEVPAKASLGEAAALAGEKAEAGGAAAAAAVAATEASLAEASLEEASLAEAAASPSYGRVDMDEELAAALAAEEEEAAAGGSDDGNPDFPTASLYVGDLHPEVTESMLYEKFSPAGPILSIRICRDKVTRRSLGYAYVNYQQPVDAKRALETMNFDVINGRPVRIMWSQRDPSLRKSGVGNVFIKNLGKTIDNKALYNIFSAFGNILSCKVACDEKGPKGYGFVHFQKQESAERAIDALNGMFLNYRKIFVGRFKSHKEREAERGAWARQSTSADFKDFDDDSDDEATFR
Oligonucleotide | 7-mer Z-score
GGGCCUG | -0.0409
GCCAGCA | -0.0428
GCAGUGG | 0.0334
GGUCAUA | 0.0714
UCUACCU | -0.278
CGUAGAA | 0.476
GGCGACU | 0.0805
UUGCGCG | -0.255

Study 2 — partner: H2BC15 (Homo sapiens, UniProt Q99877); technique: cross-linking MS; notes: hits only
Substance | interaction screen
H2AC20 (Homo sapiens, UniProt Q16777) | cross-linked
H2AC12 (Homo sapiens, UniProt Q96KK5) | cross-linked
H2AC6 (Homo sapiens, UniProt Q93077) | cross-linked
H2BC18 (Homo sapiens, UniProt Q5QNW6) | cross-linked

Study 3 — technique: aptamer microarray, sandwich; molecule type: DNA with 2'F-ANA; matrix: in vitro; concentration: 200 nM; with: Cy3 exosite-II aptamer, 400 nM; reading: higher = stronger binding; oligonucleotide: GGTTGGTGTGGTTGG
Target: Prothrombin, mature alpha-thrombin (F2, Homo sapiens, UniProt P00734)
Notes: whole 15-mer aptamer, many near background
Modification | mean fluorescence intensity
2'F-ANA at 2 4 6 8 10 11 12 13 14 15 | 57.9 a.u.
2'F-ANA at 2 3 4 6 7 9 10 11 14 15 | 149 a.u.
2'F-ANA at 2 4 5 6 7 9 13 15 | 56.1 a.u.
2'F-ANA at 1 3 10 11 13 15 | 74.9 a.u.
2'F-ANA at 6 14 15 | 202 a.u.
2'F-ANA at 3 4 5 11 12 13 | 126 a.u.
2'F-ANA at 2 3 4 6 8 10 11 12 14 | 142 a.u.
2'F-ANA at 2 4 5 7 8 9 11 12 13 15 | 76.6 a.u.

Further values, each from its own experiment
Starting sequence: PafA, mature enzyme, eGFP fusion (Elizabethkingia meningoseptica, UniProt Q9KJX5); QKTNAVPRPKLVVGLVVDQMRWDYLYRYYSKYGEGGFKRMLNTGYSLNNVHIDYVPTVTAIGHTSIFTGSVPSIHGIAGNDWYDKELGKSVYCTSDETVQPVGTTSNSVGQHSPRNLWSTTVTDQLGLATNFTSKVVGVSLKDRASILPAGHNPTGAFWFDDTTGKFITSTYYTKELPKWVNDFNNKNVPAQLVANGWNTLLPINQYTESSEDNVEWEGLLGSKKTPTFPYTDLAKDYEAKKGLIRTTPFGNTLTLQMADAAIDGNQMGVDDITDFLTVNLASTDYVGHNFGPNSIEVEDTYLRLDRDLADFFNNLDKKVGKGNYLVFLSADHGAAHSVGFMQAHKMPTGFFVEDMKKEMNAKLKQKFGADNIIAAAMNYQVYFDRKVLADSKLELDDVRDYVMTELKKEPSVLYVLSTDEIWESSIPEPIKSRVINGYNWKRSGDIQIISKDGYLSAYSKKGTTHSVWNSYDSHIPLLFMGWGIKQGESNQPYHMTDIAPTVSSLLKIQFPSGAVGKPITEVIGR
Substitution | target | assay | system | conditions | how to read | endpoint | result
R8G | inorganic phosphate, free oxyanion | microfluidic competitive inhibition | in vitro, cell-free expressed | not given, derived from inhibition constants, unchanged parent 615000 nM | lower = stronger binding | phosphate dissociation constant | 437 µM

For quick reference, copied from above (study 1):
Oligonucleotide | 7-mer Z-score
GGGCCUG | -0.0409
GGUCAUA | 0.0714
